Assay results collected from several papers.
Compare with care: the assays were run in different laboratories. “And” joins repeats or separate records; there may be more than shown. ± marks the error that the study gave. Non-standard residues stand in square brackets, D forms with d. Square brackets hold non-standard residues; d marks the D form. Where no end group is shown, it is not given here. Ends that are not written are not given here. No end group written: not given here. * marks the point of attachment.
PIN1: PIN1 (Homo sapiens, UniProt Q13526)
B1: CLASP1/GFP 805-1471 (Homo sapiens); chain ADALKKPVRRRYEPYGMYSDDDANSDASSVCSERSYGSRNGGIPHYLRQTEDVAEVLNHCASSNWSERKEGLLGLQNLLKSQRTLSRVELKRLCEIFTRMFADPHSKRVFSMFLETLVDFIIIHKDDLQDWLFVLLTQLLKKMGADLLGSVQAKVQKALDVTRDSFPFDQQFNILMRFIVDQTQTPNLKVKVAILKYIESLARQMDPTDFVNSSETRLAVSRIITWTTEPKSSDVRKAAQIVLISLFELNTPEFTMLLGALPKTFQDGATKLLHNHLKNSSNTSVGSPSNTIGRTPSRHTSSRTSPLTSPTNCSHGGLSPSRLWGWSADGLAKHPPPFSQPNSIPTAPSHKALRRSYSPSMLDYDTENLNSEEIYSSLRGVTEAIEKFSFRSQEDLNEPIKRDGKKECDIVSRDGGAASPATEGRGGSEVEGGRTALDNKTSLLNTQPPRAFPGPRARDYNPYPYSDAINTYDKTALKEAVFDDDMEQLRDVPIDHSDLVADLLKELSNHNERVEERKGALLELLKITREDSLGVWEEHFKTILLLLLETLGDKDHSIRALALRVLREILRNQPARFKNYAELTIMKTLEAHKDSHKEVVRAAEEAASTLASSIHPEQCIKVLCPIIQTADYPINLAAIKMQTKVVERIAKESLLQLLVDIIPGLLQ
B2: adrenodoxin (Homo sapiens, UniProt P10109); RED dye on amines; sequence looked up; chain SSSEDKITVHFINRDGETLTTKGKVGDSLLDVVVENNLDIDGFGACEGTLACSTCHLIFEDHIYEKLDAITDEENDMLDLAYGLTDRSRLGCQICLTKSMDNMTVRVPETVADARQSIDVGKTS
B3: IFNG (Homo sapiens, UniProt P01579); sequence looked up; chain QDPYVKEAENLKKYFNAGHSDVADNGTLFLGILKNWKEESDRKIMQSQIVSFYFKLFKNFKDDQSIQKSVETIKEDMNVKFFNSNKKKRDDFEKLTNYSVTDLNVQRKAIHELIQVMAELSPAAKTGKRKRSQMLFRG
B4: DBI (Mus musculus, UniProt P31786); Cy5 label; sequence looked up; chain MSQAEFDKAAEEVKRLKTQPTDEEMLFIYSHFKQATVGDVNTDRPGLLDLKGKAKWDSWNKLKGTSKESAMKTYVEKVDELKKKYGI
B5: PPARG AF-1 1-136 (Homo sapiens, UniProt P37231-1); pS112, pT75; chain MGETLGDSPIDPESDSFTDTLSANISQEMTMVDTEMPFWPTNFGISSVDLSVMEDHSHSFDIKPFTTVDFSSISTPHYEDIPFTRTDPVVADYKYDLKLQEYQSAIKVEPASPPYYSEKTQLYNKPHEEPSNSLMA
Chain of UniProt P54760 (whole entry, looked up): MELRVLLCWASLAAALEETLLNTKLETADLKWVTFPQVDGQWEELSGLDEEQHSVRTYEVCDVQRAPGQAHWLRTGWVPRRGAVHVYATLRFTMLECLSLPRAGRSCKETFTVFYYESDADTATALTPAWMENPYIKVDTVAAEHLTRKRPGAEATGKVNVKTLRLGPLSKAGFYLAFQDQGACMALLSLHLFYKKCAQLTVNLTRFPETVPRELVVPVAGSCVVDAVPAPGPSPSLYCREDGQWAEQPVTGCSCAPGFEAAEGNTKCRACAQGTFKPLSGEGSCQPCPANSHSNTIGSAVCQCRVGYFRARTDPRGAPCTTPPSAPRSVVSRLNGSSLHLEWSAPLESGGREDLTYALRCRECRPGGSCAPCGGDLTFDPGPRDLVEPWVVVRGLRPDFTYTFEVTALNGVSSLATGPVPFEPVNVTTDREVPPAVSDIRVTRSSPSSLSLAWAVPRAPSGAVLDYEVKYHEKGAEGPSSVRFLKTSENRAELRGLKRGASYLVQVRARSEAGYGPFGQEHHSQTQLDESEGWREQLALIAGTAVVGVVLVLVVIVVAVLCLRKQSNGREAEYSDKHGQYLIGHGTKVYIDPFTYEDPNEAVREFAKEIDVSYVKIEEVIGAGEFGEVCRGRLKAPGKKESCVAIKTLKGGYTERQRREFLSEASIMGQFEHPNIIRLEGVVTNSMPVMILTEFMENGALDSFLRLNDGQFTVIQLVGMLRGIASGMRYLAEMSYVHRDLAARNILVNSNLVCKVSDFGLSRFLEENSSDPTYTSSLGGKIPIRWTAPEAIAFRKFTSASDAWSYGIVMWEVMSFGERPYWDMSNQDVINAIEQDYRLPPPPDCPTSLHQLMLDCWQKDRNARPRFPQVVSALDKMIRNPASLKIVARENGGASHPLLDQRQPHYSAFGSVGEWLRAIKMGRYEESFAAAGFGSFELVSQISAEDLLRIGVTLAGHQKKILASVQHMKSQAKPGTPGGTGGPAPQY
Chain of UniProt P29350 (whole entry, unmodified, looked up): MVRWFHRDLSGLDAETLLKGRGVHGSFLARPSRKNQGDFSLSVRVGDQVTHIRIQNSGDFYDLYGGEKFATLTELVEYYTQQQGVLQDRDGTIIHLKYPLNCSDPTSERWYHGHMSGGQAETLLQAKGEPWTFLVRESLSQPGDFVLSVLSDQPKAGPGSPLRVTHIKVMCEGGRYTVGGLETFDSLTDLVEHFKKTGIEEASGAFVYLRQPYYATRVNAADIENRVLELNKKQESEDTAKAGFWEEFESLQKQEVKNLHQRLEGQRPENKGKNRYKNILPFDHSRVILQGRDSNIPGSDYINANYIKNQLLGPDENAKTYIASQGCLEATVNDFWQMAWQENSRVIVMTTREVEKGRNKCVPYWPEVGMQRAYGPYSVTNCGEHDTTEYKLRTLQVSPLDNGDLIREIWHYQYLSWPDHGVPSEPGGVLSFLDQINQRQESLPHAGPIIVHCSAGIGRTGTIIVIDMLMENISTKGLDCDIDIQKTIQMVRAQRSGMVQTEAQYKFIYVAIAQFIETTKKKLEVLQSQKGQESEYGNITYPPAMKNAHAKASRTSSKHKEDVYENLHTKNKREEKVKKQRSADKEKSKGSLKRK
Chain of UniProt P45481 (whole entry, looked up): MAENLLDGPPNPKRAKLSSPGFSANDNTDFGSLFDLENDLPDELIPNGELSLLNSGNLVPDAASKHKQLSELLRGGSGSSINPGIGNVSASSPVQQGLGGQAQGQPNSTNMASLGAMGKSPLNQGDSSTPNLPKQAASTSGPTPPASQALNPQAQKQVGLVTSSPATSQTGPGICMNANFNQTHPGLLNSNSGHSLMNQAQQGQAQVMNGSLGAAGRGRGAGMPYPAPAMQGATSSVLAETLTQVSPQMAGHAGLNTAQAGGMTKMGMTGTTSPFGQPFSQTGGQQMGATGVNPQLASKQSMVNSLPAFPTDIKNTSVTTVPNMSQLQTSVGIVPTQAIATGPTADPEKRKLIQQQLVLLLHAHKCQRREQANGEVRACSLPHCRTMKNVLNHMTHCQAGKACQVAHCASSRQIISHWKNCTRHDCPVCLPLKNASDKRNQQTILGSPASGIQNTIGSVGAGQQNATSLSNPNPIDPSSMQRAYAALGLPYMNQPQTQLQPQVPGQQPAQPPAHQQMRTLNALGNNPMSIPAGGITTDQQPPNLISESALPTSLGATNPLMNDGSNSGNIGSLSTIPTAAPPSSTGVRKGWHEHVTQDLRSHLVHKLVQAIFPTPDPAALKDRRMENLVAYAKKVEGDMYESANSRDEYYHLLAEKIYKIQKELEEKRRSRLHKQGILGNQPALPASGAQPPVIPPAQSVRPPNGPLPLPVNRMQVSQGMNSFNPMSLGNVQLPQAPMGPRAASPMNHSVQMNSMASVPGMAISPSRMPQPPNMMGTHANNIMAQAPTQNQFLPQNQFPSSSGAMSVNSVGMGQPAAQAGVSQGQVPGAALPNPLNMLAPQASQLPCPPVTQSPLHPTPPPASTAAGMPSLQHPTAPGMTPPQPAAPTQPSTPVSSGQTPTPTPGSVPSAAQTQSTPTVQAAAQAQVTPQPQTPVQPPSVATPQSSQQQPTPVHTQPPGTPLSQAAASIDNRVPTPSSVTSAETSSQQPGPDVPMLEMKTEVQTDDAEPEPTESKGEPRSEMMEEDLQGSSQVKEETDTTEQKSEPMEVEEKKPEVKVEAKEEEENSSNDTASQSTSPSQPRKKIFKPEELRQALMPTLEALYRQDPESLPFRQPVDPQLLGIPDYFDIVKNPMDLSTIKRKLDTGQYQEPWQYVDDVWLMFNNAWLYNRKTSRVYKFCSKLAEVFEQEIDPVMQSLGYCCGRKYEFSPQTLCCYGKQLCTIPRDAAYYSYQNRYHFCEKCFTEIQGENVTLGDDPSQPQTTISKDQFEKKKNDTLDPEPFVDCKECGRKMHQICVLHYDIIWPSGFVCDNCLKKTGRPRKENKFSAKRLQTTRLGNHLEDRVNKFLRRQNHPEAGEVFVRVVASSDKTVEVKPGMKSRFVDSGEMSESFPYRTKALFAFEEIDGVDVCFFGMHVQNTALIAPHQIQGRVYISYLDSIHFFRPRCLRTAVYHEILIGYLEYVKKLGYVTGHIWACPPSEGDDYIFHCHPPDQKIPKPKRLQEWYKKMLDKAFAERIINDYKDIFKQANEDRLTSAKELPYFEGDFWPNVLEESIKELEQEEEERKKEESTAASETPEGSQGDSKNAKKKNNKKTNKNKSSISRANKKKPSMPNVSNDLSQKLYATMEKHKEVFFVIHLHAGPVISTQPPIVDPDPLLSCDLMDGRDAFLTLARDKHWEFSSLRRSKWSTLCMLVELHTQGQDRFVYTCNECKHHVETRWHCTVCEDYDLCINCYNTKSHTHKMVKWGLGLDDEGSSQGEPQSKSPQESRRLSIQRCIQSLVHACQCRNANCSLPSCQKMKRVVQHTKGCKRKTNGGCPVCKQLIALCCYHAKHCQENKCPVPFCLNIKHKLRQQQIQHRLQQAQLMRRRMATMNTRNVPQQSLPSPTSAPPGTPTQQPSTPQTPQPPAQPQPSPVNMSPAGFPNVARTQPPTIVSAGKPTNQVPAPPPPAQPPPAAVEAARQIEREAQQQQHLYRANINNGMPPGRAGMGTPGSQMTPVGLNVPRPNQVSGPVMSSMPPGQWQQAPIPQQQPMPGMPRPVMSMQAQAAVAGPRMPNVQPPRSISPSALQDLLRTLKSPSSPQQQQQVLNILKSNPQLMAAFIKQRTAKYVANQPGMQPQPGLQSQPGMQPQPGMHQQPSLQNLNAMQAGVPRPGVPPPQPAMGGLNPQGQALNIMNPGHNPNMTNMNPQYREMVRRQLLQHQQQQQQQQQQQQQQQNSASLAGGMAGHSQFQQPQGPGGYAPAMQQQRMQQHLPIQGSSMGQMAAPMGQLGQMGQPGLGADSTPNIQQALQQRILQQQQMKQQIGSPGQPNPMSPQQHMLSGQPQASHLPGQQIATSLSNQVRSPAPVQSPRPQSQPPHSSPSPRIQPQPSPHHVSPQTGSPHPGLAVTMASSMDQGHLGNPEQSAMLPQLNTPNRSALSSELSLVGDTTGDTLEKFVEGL
Chain of UniProt P06400 (whole entry, unmodified, looked up): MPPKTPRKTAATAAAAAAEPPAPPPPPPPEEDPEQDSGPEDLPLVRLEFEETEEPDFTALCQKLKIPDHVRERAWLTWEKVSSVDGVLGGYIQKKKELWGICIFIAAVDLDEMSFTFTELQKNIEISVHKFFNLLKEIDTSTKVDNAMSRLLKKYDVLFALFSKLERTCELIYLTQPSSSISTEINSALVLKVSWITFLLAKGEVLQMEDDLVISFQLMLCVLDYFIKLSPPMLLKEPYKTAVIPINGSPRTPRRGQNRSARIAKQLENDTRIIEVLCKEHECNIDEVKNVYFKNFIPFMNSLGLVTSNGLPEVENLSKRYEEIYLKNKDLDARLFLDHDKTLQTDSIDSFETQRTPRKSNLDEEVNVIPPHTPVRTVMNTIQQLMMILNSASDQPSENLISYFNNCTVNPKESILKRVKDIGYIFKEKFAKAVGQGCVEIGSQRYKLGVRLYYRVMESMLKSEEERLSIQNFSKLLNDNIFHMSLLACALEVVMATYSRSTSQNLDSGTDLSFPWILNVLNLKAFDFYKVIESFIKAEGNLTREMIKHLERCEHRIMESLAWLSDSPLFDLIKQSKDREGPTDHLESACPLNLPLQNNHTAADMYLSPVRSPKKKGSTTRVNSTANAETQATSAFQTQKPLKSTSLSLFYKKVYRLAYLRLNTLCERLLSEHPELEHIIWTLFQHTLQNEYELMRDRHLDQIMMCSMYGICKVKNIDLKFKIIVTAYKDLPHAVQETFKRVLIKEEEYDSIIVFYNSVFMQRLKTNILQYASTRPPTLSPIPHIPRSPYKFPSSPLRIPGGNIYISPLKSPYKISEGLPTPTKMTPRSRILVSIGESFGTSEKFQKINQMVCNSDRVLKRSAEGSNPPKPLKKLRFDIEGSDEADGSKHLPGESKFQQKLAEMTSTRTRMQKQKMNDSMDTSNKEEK

`FCGRT/B2M (Homo sapiens)` gave a Kd of 0.164 µM (F9/ALB FIX-albumin fusion, cleavable linker (Homo sapiens); SPR).
For `Nrxn1 alpha, lacks splice site 4 insert (sequence not shown)`, the Kd was 0.0437 µM (Clstn3 ectodomain Fc fusion; cell-based binding assay; COS; apparent).
The Kd of `LDYHFGLEEGEGIRDLFD (E2F1 409-426 (Homo sapiens, UniProt Q01094); sequence looked up)` is reported as 0.75 µM (RB1 55-787 del245-267/del582-642, phosphorylated by Cdk2-CycA (UniProt P06400); ITC; pH 8.0, NaCl 100 mM, with: LxCxE peptide 100 µM).
`ATRIP fragment T12A` has a Kd of 17 µM (RPA1 1-120 (Homo sapiens, UniProt P27694); competition with ATRIP probe, fluorescence polarisation; pH 7.5, NaCl 75 mM).
The Kd of `B1 (CLASP1/GFP 805-1471)` is reported as over 10 µM (PRC1 (Homo sapiens, UniProt O43663); BLI).
The Kd of `BCL9 HD2B peptide` is reported as 0.00433 µM (CTNNB1 (Homo sapiens, UniProt P35222); AlphaScreen).
With `{FITC}-GFID[pS]D[pT]DVEEE-NH2 (MDC1 phosphopeptide; FITC N-terminus, pS5, pT7, C-terminal amide; FITC = O=C1OC2(c3ccc(O)cc3Oc3cc(O)ccc32)c2ccc(NC(=S)*)cc21; pS = N[C@@H](COP(=O)(O)O)C(=O)O; pT = C[C@@H](OP(=O)(O)O)[C@H](N)C(=O)O)` the Kd was 280 ± 60 µM (TOPBP1 641-746 R681E/K682E (Homo sapiens, UniProt Q92547); fluorescence polarisation; peptide; NaCl 150 mM).
`B2 (adrenodoxin)` has a Kd of 0.05 µM (CYP27A1 (Homo sapiens, UniProt Q02318); MST; pH 7.4, 25 °C, oxidized, single-site model).
`B3 (IFNG)` has a Kd of 0.0001 µM (IFNGR1 (Homo sapiens, UniProt P15260); radioligand binding; Raji; apparent).
`ETDKE[pY][pY]TVKD (JAK1 1029-1039; pY1034/pY1035; pY = N[C@@H](Cc1ccc(OP(=O)(O)O)cc1)C(=O)O)` gave a Kd of 0.5 ± 0.1 µM (PTPN6 243-530 Q252R/C453S (Homo sapiens, UniProt P29350); ITC; peptide; pH 8.0, 25 °C, NaCl 100 mM).
`GVVEVDAAV[pT]PEERHLSKMQQ (APP 659-679 (UniProt P05067-4); not fully specified; pT668; pT = C[C@@H](OP(=O)(O)O)[C@H](N)C(=O)O; sequence looked up)` gave a Kd of 26.9 µM (PIN1 WW domain 1-53 (Homo sapiens, UniProt Q13526); NMR titration; peptide; trans isomer).
With `TNYLFSPNGPIARAW (TNYL-RAW)` the Kd was 0.00306 µM (EPHB4 16-539 (Homo sapiens, UniProt P54760); SPR; peptide).
`QTARK(Ac)STGG (histone H3 6-14 (Homo sapiens, UniProt P68431); also: biotinylated, site not given here; K9ac; sequence looked up)` has a Kd of 22 µM (YAF9 8-171 R114D (Saccharomyces cerevisiae, UniProt P53930); fluorescence titration; peptide; pH 7.5, 25 °C, NaCl 150 mM).
The Kd of `KVAK[pS]PKKAKAW (H1-5 168-178 (Homo sapiens); pS172; pS = N[C@@H](COP(=O)(O)O)C(=O)O)` is reported as 2600 µM (PIN1; NMR titration; peptide; apparent Kd, single-residue fits).
The Kd of `B4 (DBI)` is reported as 0.053 µM (CPT1A 381-469 W452A, Cy3 label (Rattus norvegicus, UniProt P32198); FRET; 24 °C).
`B5 (PPARG AF-1 1-136)` gave a Kd of 4.08 µM and 4.44 µM (PIN1; NMR).
For `LEQKAASCHNSYIVLCIENSFMTSFSK (Col18a1 C-terminal endostatin peptide (Mus musculus))`, the Kd was 0.0478 µM (Flt4 25-775 (Mus musculus, UniProt P35917); SPR; peptide).
With `UGT1A9 (Homo sapiens, UniProt O60656)` the Vmax/Km was 14 µL/min/mg (CC(=O)c1ccc(O)cc1; steady-state kinetics; pH 7.4, 37 °C).
For `GSHMSDLACRLLGQSMDESGLPQLTSYDCEVNAPIQGSRNLLQGEELLRALDQVN (HIF1A CTAD residues 776-826 (Homo sapiens, UniProt Q16665))`, the Kd was 0.009 ± 0.002 µM (Crebbp 340-439 (Mus musculus, UniProt P45481); competition with ligand, fluorescence polarisation; peptide; pH 6.8, 298 K, NaCl 50 mM, apparent).
With `GSFGPDLRAGD (peptide)` the Kd was 146 ± 4 µM (PPIC fragment (Homo sapiens); NMR titration; peptide; apparent, cis and trans isomers).

For quick reference, copied from above:
`B3 (IFNG)` has a Kd of 0.0001 µM (IFNGR1 (Homo sapiens, UniProt P15260); radioligand binding; Raji; apparent).
`ETDKE[pY][pY]TVKD (JAK1 1029-1039; pY1034/pY1035; pY = N[C@@H](Cc1ccc(OP(=O)(O)O)cc1)C(=O)O)` gave a Kd of 0.5 ± 0.1 µM (PTPN6 243-530 Q252R/C453S (Homo sapiens, UniProt P29350); ITC; peptide; pH 8.0, 25 °C, NaCl 100 mM).
`GVVEVDAAV[pT]PEERHLSKMQQ (APP 659-679 (UniProt P05067-4); not fully specified; pT668; pT = C[C@@H](OP(=O)(O)O)[C@H](N)C(=O)O; sequence looked up)` gave a Kd of 26.9 µM (PIN1 WW domain 1-53 (Homo sapiens, UniProt Q13526); NMR titration; peptide; trans isomer).
